Measured values pooled from the literature.
± gives the spread as reported.
CASP9: Caspase-9 (CASP9, Homo sapiens, UniProt P55211)
USP5: Ubiquitin carboxyl-terminal hydrolase 5 (USP5, Homo sapiens, UniProt P45974)
CASP4: Caspase-4 (CASP4, Homo sapiens, UniProt P49662)

Compound	target or system	test	test system	setting	scale	quantity	result
CC(=O)N[C@H](C(=O)N[C@@H](CCC(=O)O)C(=O)N[C@@H](C)C(=O)N[C@@H](CC(=O)O)C(=O)COC(=O)c1c(C)cccc1C)C(C)C	CASP9	enzyme activity, inhibitor				kinact/KI	131000 M⁻¹ s⁻¹
CC(=O)[C@]12NC(C)(C)C[C@@]1(C)C(=O)C1=C2c2c(c3c4n2C(C)(C)CC2=C4[C@@]4(CC(C)(C)N[C@@](C)(C4)C2=O)CC3(C)C)C(=O)C(C)(C)N1 (racemic)	Potassium voltage-gated channel subfamily KQT member 2 (KCNQ2, Homo sapiens, UniProt O43526)	ion current, whole-cell patch clamp	HEK293T	40 µM	baseline: before compound	relative current	0.93 ± 0.08
CSc1nnc2c(n1)OC(C(=O)c1ccccc1)Nc1ccccc1-2 (stereo not drawn)	USP5	enzyme activity, inhibitor		17 µM		inhibition	34%
CC(=O)N1C[C@H](O)C[C@H]1C(=O)N[C@@H](CC(C)C)C(=O)N[C@@H](C)C(=O)N[C@@H](CC(=O)O)C(=O)COC(=O)c1c(C)cccc1C	CASP4	enzyme activity, inhibitor				kinact/KI	11200 M⁻¹ s⁻¹
CN1CCN(Cc2ccc(NC(=O)c3cccc(C#Cc4cnc(N)c5ncccc45)c3)cc2C(F)(F)F)CC1	Tyrosine-protein kinase ABL1, phosphorylated (ABL1, Homo sapiens, UniProt P00519, T315I)	cell-free assay, competition with immobilised ligand		50 nM		remaining binding	1.5%
O=C1C2=C(C(=O)c3ccccc31)C(c1ccccc1O)c1sc(=O)[nH]c1S2 (stereo not drawn)	USP5	enzyme activity, inhibitor		17 µM		inhibition	56%
COC(=O)[C@@]1(C)C=C(C(=O)Nc2cccc(C(=O)Nc3ccc(Nc4nccc(-c5cccnc5)n4)c(C)c3)c2)C(=O)CC1	Mitogen-activated protein kinase 8 (MAPK8, Homo sapiens, UniProt P45983, C116S)	noncovalent binding, SPR		100, 300, 1000 nM, two-step kinetic model		koff	0.0317 s⁻¹
CC(=O)N[C@@H](CC(C)C)C(=O)N[C@@H](CCC(=O)O)C(=O)N[C@@H](COCc1ccccc1)C(=O)N[C@@H](CC(=O)O)C(=O)COC(=O)c1c(C)cccc1C	CASP9	enzyme activity, inhibitor				kinact/KI	127000 M⁻¹ s⁻¹
N#CCNC(=O)c1ccc([C@H]2[C@@H](F)[C@@H](F)C[C@@H](F)[C@H]2F)cc1		hepatocyte stability	cryopreserved human hepatocytes	1 µM		hepatic clearance	6.9 mL/min/kg
CCCCCC(O)/C=C/C=O (stereo not drawn)	Glyoxylate reductase/hydroxypyruvate reductase (Homo sapiens, UniProt Q9UBQ7)	competitive isoTOP-ABPP, item: GRHPR cysteine peptide	Ramos soluble proteome	100 µM, with: iodoacetamide probe	baseline: DMSO over compound-treated, higher = stronger cysteine blockade	isoTOP-ABPP competition ratio	2
COC(=O)c1ccccc1NC(=O)Nc1ccc(N2CCOCC2)c2nonc12	USP5	enzyme activity, inhibitor		17 µM		inhibition	51%
O=C(O)C1CC1C(=O)c1ccc(Cl)c(Cl)c1 (stereo not drawn)	Kynurenine 3-monooxygenase, residues 1-394 (Saccharomyces cerevisiae, UniProt P38169)	substrate		saturating		NADPH consumption rate	0.12 µM/min
O=C(NC1CCOCC1)c1ccc([C@H]2[C@@H](F)[C@@H](F)C[C@@H](F)[C@H]2F)cc1		hepatocyte stability	cryopreserved rat hepatocytes	1 µM		hepatic clearance	10 mL/min/kg
CC1=NN(C(C)(C)C)C(=O)C1	USP5	enzyme activity, inhibitor		17 µM		inhibition	85%
Nc1nc(SCc2ccc(Cl)cc2)nn1S(=O)(=O)c1ccc(-c2ccccn2)s1	Lysophospholipase-like protein 1 (Mus musculus, UniProt Q3UFF7)	enzyme activity, activator, gel-based ABPP	purified protein	concentration not given, with: FP-rhodamine	baseline: DMSO	probe labeling increase	1.4 fold
Cn1c(=O)n(C2CCC(=O)NC2=O)c2ccc(C3CCN(CC(=O)Nc4cccc(CS(=O)(=O)N5CC[C@H](Nc6cccc(-c7sc(C(=O)O)c(OCC(=O)O)c7Cl)c6)CC5(C)C)c4)CC3)cc21 (stereo partly drawn)	Tyrosine-protein phosphatase non-receptor type 2 (PTPN2, Homo sapiens, UniProt P17706, E41K/R35E/R43E)	degrader, bio-layer interferometry		250 nM	higher = more binding	BLI binding response	0.596 a.u.
C=C(NC(=O)c1csc(-c2nc3c(cc2O)-c2nc(cs2)C(=O)NC(C(C)O)C(=O)NC(=C(C)OC)c2nc(cs2)C(=O)NC2c4nc(cs4)C(=O)NC(COC(=O)c4c5c6c(cccc6n4O)COC(=O)C(OC4CC(C)(O)C(N(C)C)C(C)O4)C2OC5)c2nc-3cs2)n1)C(N)=O (stereo not drawn)			cynomolgus monkey, both sexes, plasma	intravenous infusion, 1.5 mg/kg twice daily, 0 to 30 h		Cmax	15200 ng/mL
CC(=O)N[C@@H](CC(C)C)C(=O)N[C@H](C(=O)N[C@@H](Cc1c[nH]cn1)C(=O)N[C@@H](CC(=O)O)C(=O)COC(=O)c1c(C)cccc1C)C(C)(C)C	CASP4	enzyme activity, inhibitor				kinact/KI	21500 M⁻¹ s⁻¹
O=C1c2sc(-c3ccc(N4CCC(F)C4)nc3F)nc2CCN1c1cccnc1 (stereo not drawn)	TAR DNA-binding protein 43, aggregated (TARDBP, Homo sapiens, UniProt Q13148)	radioligand binding	control brain sarkosyl-insoluble extract	37.19 nM		specific binding	0.053 nM
O=C(c1cccc(C(F)(F)F)n1)c1c[nH]c2ccccc12	Aryl hydrocarbon receptor (AHR, Homo sapiens, UniProt P35869)	reporter gene, agonist, XRE luciferase	HepG2		baseline: ITE	Emax	60 ± 4%
CCCCCCCCCCCCCCCC(=O)NCCCC[C@H](NC(=O)[C@H](CCC(=O)O)NC(=O)[C@H](Cc1ccc(O)cc1)NC(=O)[C@H](CCC(=O)O)NC(=O)COCC(=O)NCCCOCCOCCOCCCNC(=O)[C@H](Cc1c[nH]c2ccccc12)NC(=O)[C@H](CCCCN)NC(=O)[C@H](C)NC(=O)[C@H](CCCCNC(=N)N)NC(=O)[C@H](CCC(N)=O)NC(=O)[C@H](Cc1c[nH]cn1)NC(=O)[C@H](CCSC)NC(=O)[C@H](CC(C)C)NC(=O)[C@H](CCC(N)=O)NC(=O)[C@@H](NC(=O)[C@H](CCC(=O)O)NC(=O)C(C)(C)NC(=O)[C@@H](NC(=O)C(C)(C)N)C(C)C)[C@@H](C)CC)C(=O)N[C@@H](CCC(=O)O)C(=O)N[C@@H](Cc1ccc(O)cc1)C(=O)N[C@@H](CCC(=O)O)C(N)=O	Parathyroid hormone/parathyroid hormone-related peptide receptor (PTH1R, Homo sapiens, UniProt Q03431)	agonist	Saos-2 with cAMP reporter	316 pM, 90 min, washout after 30 min ligand	higher = more cAMP	cAMP luminescence AUC	376 a.u.
CCCC[C@H](NC(=O)[C@H](CC(=O)O)NC(C)=O)C(=O)N1[C@H](C(=O)N[C@@H](CC(=O)O)C(=O)COC(=O)c2c(C)cccc2C)C[C@@H]2CCCC[C@@H]21	CASP4	enzyme activity, inhibitor				kinact/KI	1500 M⁻¹ s⁻¹
O=C1N/C(=N\c2ccc(Cl)cc2C(=O)O)S/C1=C\c1ccc(C(F)(F)F)cc1	Dihydroorotate dehydrogenase (quinone), mitochondrial (DHODH, Homo sapiens, UniProt Q02127)	enzyme activity, inhibitor, DCIP reduction		0.05 µM	higher = more activity	reaction rate	-32.6 a.u.
CC(C)[C@@H]1NC(=O)[C@H](Cc2ccccc2)NC(=O)CSC[C@@H](C(N)=O)NC(=O)[C@H](CCC(=O)O)NC(=O)[C@H](CO)NC(=O)[C@H](Cc2c[nH]c3cccc(Cl)c23)NC(=O)[C@H](C2CCCCC2)NC(=O)[C@H](C(C)C)NC(=O)[C@H](Cc2ccc(O)cc2)NC(=O)[C@H](CC(=O)O)NC(=O)[C@H](Cc2c[nH]c3ccccc23)NC(=O)[C@H](Cc2ccc(N)nc2)NC(=O)[C@H](Cc2c[nH]c3ccc(Cl)cc23)NC(=O)[C@H](CCC(=O)O)NC1=O	Interleukin-1 receptor-like 2 (IL1RL2, Homo sapiens, UniProt Q9HB29)	reporter gene (SEAP), inhibitor, HEK-Blue IL-36R reporter	HEK-Blue IL-36R cells	1.23 µM, 6 h, with: IL-36γ 100 ng/mL		remaining activity	100%

For quick reference, copied from above:
Compound	target or system	test	test system	setting	scale	quantity	result
O=C1N/C(=N\c2ccc(Cl)cc2C(=O)O)S/C1=C\c1ccc(C(F)(F)F)cc1	Dihydroorotate dehydrogenase (quinone), mitochondrial (DHODH, Homo sapiens, UniProt Q02127)	enzyme activity, inhibitor, DCIP reduction		0.05 µM	higher = more activity	reaction rate	-32.6 a.u.
O=C(c1cccc(C(F)(F)F)n1)c1c[nH]c2ccccc12	Aryl hydrocarbon receptor (AHR, Homo sapiens, UniProt P35869)	reporter gene, agonist, XRE luciferase	HepG2		baseline: ITE	Emax	60 ± 4%
